Results collected from several papers.
Protocols differ between the studies behind these lines.
Ubiquitin carboxyl-terminal hydrolase 39 ZnF-UBD domain: Ubiquitin carboxyl-terminal hydrolase 39, ZnF-UBD domain (Homo sapiens, UniProt Q53GS9)
Sequence of UniProt Q53GS9 (whole entry, looked up): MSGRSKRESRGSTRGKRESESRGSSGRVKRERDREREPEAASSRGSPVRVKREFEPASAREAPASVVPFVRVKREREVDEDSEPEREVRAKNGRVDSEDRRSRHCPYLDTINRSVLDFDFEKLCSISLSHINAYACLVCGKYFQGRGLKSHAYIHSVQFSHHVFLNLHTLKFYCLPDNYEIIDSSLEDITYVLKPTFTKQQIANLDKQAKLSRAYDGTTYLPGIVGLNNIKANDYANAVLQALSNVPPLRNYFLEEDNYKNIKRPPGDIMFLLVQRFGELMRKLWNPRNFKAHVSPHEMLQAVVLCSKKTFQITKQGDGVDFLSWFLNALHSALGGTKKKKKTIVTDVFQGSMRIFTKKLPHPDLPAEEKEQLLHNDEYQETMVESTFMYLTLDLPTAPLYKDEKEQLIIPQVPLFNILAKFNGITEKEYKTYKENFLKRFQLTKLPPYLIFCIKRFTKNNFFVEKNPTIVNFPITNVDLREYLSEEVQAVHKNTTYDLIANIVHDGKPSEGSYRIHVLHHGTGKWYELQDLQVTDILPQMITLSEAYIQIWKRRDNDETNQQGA

`O=C(O)CCC(=O)N1CCc2ccccc21` gave a Kd of over 1000 µM (Ubiquitin carboxyl-terminal hydrolase 39 ZnF-UBD domain).
`COC1=CC(c2cc3ccccc3[nH]2)=N/C1=C\c1[nH]c(C)cc1C` gave a CC50 of 41.9 µM (LMH chicken hepatoma cells).
`N#Cc1c2n(c3c(=O)n(CC(=O)O)cnc13)CCCC2` gave a Kd of over 1000 µM (Ubiquitin carboxyl-terminal hydrolase 39 ZnF-UBD domain).
For `CC(C)[C@@H]1NC(=O)[C@H](Cc2c[nH]cn2)NC1=O`, the CC50 was over 15 µM (L-02; SRB).
The CC50 of `CC(=O)c1c(O)c(C)c(O)c2c1OC1=CC(=O)C(C(C)=O)C(=O)C12C` (stereo not drawn) is reported as 71.6 µM (LMH chicken hepatoma cells).
For `Nc1nc(N)c2nnn([C@@H]3C(F)=C(CO)[C@@H](O)[C@H]3O)c2n1`, the CC50 was over 100 µM (BHK-D2-Rluc; MTT; 48 (unit not given)).
With `CNC(=O)c1cc(Oc2ccc(NC(=O)Nc3ccc(Cl)c(C(F)(F)F)c3)cc2)ccn1` the CC50 was 19.9 µM (A549; MTT; 24 h).
Under “z-scored log2 fold change”, `O=C(O)Cc1c[nH]c2ccccc12` is recorded as -0.0498 (binding, equilibrium dialysis LC-MS; 5 µM, thermostabilized A2AR-BRIL construct; baseline: no-protein control, direction not given).
For `Nc1ncnc2c1nnn2[C@@H]1C(F)=C(CO)[C@@H](O)[C@H]1O`, the CC50 was over 100 µM (BHK-D2-Rluc; MTT; 48 (unit not given)).
Under “EEG Beta3-power Fz-Cz”, `OC(CCN1CCCCC1)(c1ccccc1)C1CC2C=CC1C2` (stereo not drawn) is recorded as 1.8 µV² (resting-state EEG; healthy elderly humans; oral, 2 mg, eyes open, LS mean).
`O=c1[nH]cnc2c1nnn2[C@@H]1C(F)=C(CO)[C@@H](O)[C@H]1O` gave a CC50 of over 100 µM (BHK-D2-Rluc; MTT; 48 (unit not given)).
For `CC(C)=CCc1ncc(/C=C2\NC(=O)[C@H](C(C)C)NC2=O)[nH]1`, the CC50 was over 15 µM (L-02; SRB).
The CC50 of `N#C[C@@]1(c2ccc3c(N)ncnn23)O[C@H](CO)[C@@H](O)[C@H]1O` is reported as over 100 µM (primary human hepatocytes; measured: DNA; 4 h).
For `NC(=O)c1ccc[n+]([C@@H]2O[C@H](COP(=O)([O-])O)[C@@H](O)[C@H]2O)c1`, “z-scored log2 fold change” read 0.0966 (binding, equilibrium dialysis LC-MS; 5 µM, thermostabilized A2AR-BRIL construct; baseline: no-protein control, direction not given).
`Oc1c(I)cc(I)c2cccnc12` has a CC50 of 163 µM (LMH chicken hepatoma cells).
`[N-]=[N+]=N[C@]1(CO)O[C@@H](n2ccc(N)nc2=O)[C@@H](F)[C@@H]1O` has a CC50 of over 100 µM (DBT-9-hACE2; cytotoxicity; 48 (unit not given)).
`CNc1ncnc2c1nnn2[C@@H]1C(F)=C(CO)[C@@H](O)[C@H]1O` has a CC50 of over 100 µM (BHK-D2-Rluc; MTT; 48 (unit not given)).
The CC50 of `CSc1ccc(OCc2ncc([N+](=O)[O-])n2C)cc1` is reported as about 200 µM (LMH chicken hepatoma cells).
